# Experimental data from different studies.
# Lines come from different studies, so protocols differ. “And” joins repeats or separate records; there may be more than shown. ± gives the spread as reported.
Compound,test,system,conditions,how to read,measurement,value
Cc1nnc2n1-c1ccc(Cl)cc1C(c1ccccc1)=NC2,,"human, female","2 mg, day 0",,AUC,565 ± 46.1 ng·h/mL
CC(=O)Oc1ccc2c3c1O[C@H]1[C@@H](OC(C)=O)C=C[C@H]4[C@@H](C2)N(C)CC[C@@]341,LC-MS/MS,"Sprague-Dawley rat, male, whole blood","intraperitoneal, 10 mg/kg, up to 180 min",,AUC(0-last),4 ± 0.667 ng·h/mL
CC(C)(C)[C@H](NC(=O)C(F)(F)F)C(=O)N1C[C@H]2[C@@H]([C@H]1C(=O)N[C@H](C#N)C[C@@H]1CCNC1=O)C2(C)C,,mouse liver microsomes,scaled to liver,,intrinsic clearance,370 mL/min/kg
NC(=O)c1nc(F)c[nH]c1=O,,bovine cells,,,CC50,310 µM
OCc1ncc2n1-c1ccc(Cl)cc1C(c1ccccc1F)=NC2,,"healthy volunteers, plasma",with: momelotinib,baseline: with momelotinib over alone,AUC(0-t) geometric mean ratio,80.6%
COc1cc2c(Oc3ccc4[nH]c(C)cc4c3F)ccnc2cc1OCC1(N)CC1,,paediatric recurrent refractory sarcoma,12 mg,,grade 3 influenza-like symptoms,0%
CCN(CC)CCOc1ccc2c(c1)C(=O)c1cc(OCCN(CC)CC)ccc1-2,,African green monkey cells,3 (unit not given),,CC50,6.34 µM
O=C1c2c(O)c(=O)ccn2N([C@@H]2c3ccccc3SCc3c2ccc(F)c3F)[C@@H]2COCCN12,,bovine cells,,,CC50,5.7 µM
CCN(CC)C(=O)[C@@H]1C=C2c3cccc4[nH]cc(c34)C[C@H]2N(C)C1,,human,"oral, 100 µg",,AUC extrapolated,2.22% and 1.6% and 1.67% and 3.42% and 3.55% and 2.54% and 2.8% and 2.68%
NC(=O)c1ncn([C@@H]2O[C@H](CO)[C@@H](O)[C@H]2O)n1,,dog cells,,,CC50,360 µM
CCCc1cc(O)c2c(c1)OC(C)(C)[C@@H]1CCC(C)=C[C@@H]21,LC-MS/MS,"Scn1a+/− mice, both sexes, plasma","intraperitoneal, 3 mg/kg, after hyperthermia protocol",,plasma concentration,81 ± 18 ng/mL
COc1ccc2c(c1)[C@]13CCCC[C@@H]1[C@H](C2)N(C)CC3,,"C57BL/6 mice, plasma","oral, 50 µg/g, 15 min",,plasma concentration,252 ng/mL and 608 ng/mL and 217 ng/mL and 411 ng/mL and 225 ng/mL
C#Cc1ccc2c(c1)C(c1ccccn1)=NCc1c(-c3cnco3)ncn1-2.Cl,shake flask,50 mM phosphate buffer,"24 h, pH 3, 25 °C",,solubility,7220 µg/mL
O=C1c2c(O)c(=O)ccn2N([C@@H]2c3ccccc3SCc3c2ccc(F)c3F)[C@@H]2COCCN12,,"BALB/c mice, plasma","oral, 50 mg/kg baloxavir marboxil, 12 h",,plasma concentration,25.2 ng/mL
CN/C(=N\[N+](=O)[O-])NCc1cnc(Cl)s1,,test soil,"0.12 mg/kg nominal, 28 days",,measured soil concentration,0.05 mg/kg dry soil
O=C(O)CCC(CP(=O)(O)O)C(=O)O (stereo not shown),,"male Wistar rat, brain","ip, 100 mg/kg",,Cmax,~15 µM

# A few entries again:
Compound,test,system,conditions,how to read,measurement,value
CCCc1cc(O)c2c(c1)OC(C)(C)[C@@H]1CCC(C)=C[C@@H]21,LC-MS/MS,"Scn1a+/− mice, both sexes, plasma","intraperitoneal, 3 mg/kg, after hyperthermia protocol",,plasma concentration,81 ± 18 ng/mL
OCc1ncc2n1-c1ccc(Cl)cc1C(c1ccccc1F)=NC2,,"healthy volunteers, plasma",with: momelotinib,baseline: with momelotinib over alone,AUC(0-t) geometric mean ratio,80.6%
